Assay results pooled from the literature.
Compare with care: the assays were run in different laboratories. pIC50: −log10 of the molar value.
Cell line: MOLT-4

Structure (SMILES)	test	setting	how to read	endpoint	result
C1=[N+]2CCCC[N+]3=Cc4ccc5[n]4[Au-]23[n]2c1ccc2-c1nc2ccccc2nc1-5.F[P-](F)(F)(F)(F)F		NCI60 five-dose screen		TGI	4 -log M
CC[C@H](CO)Nc1nc(NCc2ccc(-c3ccccn3)cc2)c2ncn(C(C)C)c2n1	tandem mass tag proteomics, measured: CDK12	1 µM, 5 h	baseline: DMSO	log2 fold change	-1.84
COc1ccc2c(c1)Cc1c-2nc(N)c(C#N)c1-c1ccc(CO)o1	cell growth or viability, ATP luminescence			pIC50	5.29
NC(=O)c1ccc(-c2ccccc2Cl)c2c3c([nH]c12)CC[C@@H](N)C3	cell growth or viability			pIC50	7.61
CC(C)c1ccc(N(C)c2ccc3c(c2)OCC[C@H]3CNc2cnccc2C(=O)O)cc1	cell growth or viability, ATP luminescence	7 days		pIC50	8.90
CN(C)CCN1CCN(c2ccc3nc(-c4ccc5nc(-c6ccc(C(F)(F)F)cc6)[nH]c5c4)[nH]c3c2)CC1	SRB	10 µM, 48 h		growth percent	44.2%
N#Cc1c(N)nc2c(c1-c1ccc(CO)o1)Cc1cc(O)ccc1-2	cell growth or viability, ATP luminescence			pIC50	5.70
O=C(Nc1nnc2c1c(-c1ccc(Cl)cc1)nc1sc(=Cc3ccco3)c(=O)n12)c1ccccc1 (mixture of isomers)	SRB	10 µM, NCI60 single-dose screen	baseline: untreated	cell growth	32.8%
N#Cc1c(N)nc2c(c1-c1cccs1)Cc1cc(O)ccc1-2	cell growth or viability, ATP luminescence			pIC50	4.42
CN1CCC(N[C@H]2CCc3[nH]c4c(C(N)=O)ccc(-c5ccccc5Cl)c4c3C2)CC1	cell growth or viability			pIC50	5.75
N#Cc1c(N)nc2c(c1-c1ccc(CO)o1)Cc1cccc(O)c1-2	cell viability, CellTiter-Glo		no inhibition at 100 µM	pIC50	< 4.00
Cc1ccc([N+](=O)[O-])cc1S(=O)(=O)N(C)/N=C/c1cnc2ccc(Br)cn12	cell growth or viability			pIC50	6.28

Excerpt of the above:
Structure (SMILES)	test	setting	how to read	endpoint	result
COc1ccc2c(c1)Cc1c-2nc(N)c(C#N)c1-c1ccc(CO)o1	cell growth or viability, ATP luminescence			pIC50	5.29
